# Published values from different studies.
# Numbered parts are unrelated; each lists some results of a single study. Substitutions count along the parent as printed.

# Set 1
# Target: ABI1, truncated, D143A, DHFR fusion (Arabidopsis thaliana)
# Method: DHFR PCA, deep sequencing
# Medium: yeast
# Notes: methotrexate growth selection, single substitutions
# Together with: (+)-ABA 2500 µM
# Baseline: wild-type fitted maximum
# Direction: higher = stronger binding
# Starting sequence: PYL1, truncated, DHFR fusion (Arabidopsis thaliana); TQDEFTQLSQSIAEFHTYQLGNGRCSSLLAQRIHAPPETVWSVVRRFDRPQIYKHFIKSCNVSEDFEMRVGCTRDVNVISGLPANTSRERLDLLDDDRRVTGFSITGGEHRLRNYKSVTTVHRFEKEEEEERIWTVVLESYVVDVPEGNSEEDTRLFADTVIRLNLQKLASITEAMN
Substitution,relative binding score [%]
T86E,88.7
S11K,104
L91M,95.5
Q2W,87.3
D159G,91.1
T120R,28.4
E130Q,101
P36S,102
L20F,91.6
E129L,103
P36F,88.9
H55R,95.2
E139Y,97.9
S63P,98.7
T135G,51.9
L156D,94.5
Y53L,43.8
A84P,27.8
P83N,68.3
M68N,93.6
V118C,97.4

# Set 2
# Substance: PhoQ, residues 284 288 289 292 302 303 TNASYF
# Method: Sort-seq
# Item: YFP reporter
# Medium: E. coli
# Notes: PhoQ-PhoP variant library
# Together with: 10 µM Mg2+
# Baseline: high Mg2+ state
# Direction: higher = stronger signaling
target,fold induction
"PhoP, residues 12 14 15 18 19 GMGLL (Escherichia coli, UniProt P23836)",1.73
"PhoP, residues 12 14 15 18 19 LFHKL (Escherichia coli, UniProt P23836)",3.09
"PhoP, residues 12 14 15 18 19 QQAYL (Escherichia coli, UniProt P23836)",4.14

# Set 3
# Target: RNA binding protein fox-1 homolog 2, RRM domain, GST-SBP tag (RBFOX2, Homo sapiens, UniProt O43251-10, residues 100-194)
# Method: RNA Bind-n-Seq
# Form: RNA
# Medium: in vitro
# Concentration: 365 nM
# Notes: natural RNA segment, single round, ends assumed
# Baseline: no-protein control
# Direction: higher = stronger binding
# Construct (chain): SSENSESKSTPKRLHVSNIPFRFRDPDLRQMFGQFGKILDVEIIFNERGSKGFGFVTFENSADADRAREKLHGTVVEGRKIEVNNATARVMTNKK
Oligonucleotide,RBNS enrichment (R)
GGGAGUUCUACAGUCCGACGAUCACAAAUUGUGGGGCCUUCAAAUUGUUUUUCUCUUUUCAUAUUAAAAAUGGUCUUUCUGUGAACUAGCUUCACAGGGUCAGUGUGGAUGUUUUCUCCCAAGUUAUGAACACUGGAAUUCUCGGGUGCCAA,0.566
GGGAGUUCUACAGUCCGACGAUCAUAUUUGCUGCAUUUUUUUCCGUAUAUAUAACAUGUCUUCUUUCAGAAUGGGAAUAUAUGUGUGCCUCCCAACAUUUACUGUUAAAGUGUGUUAUCUUUAUAUGUCAAACUGGAAUUCUCGGGUGCCAA,2.2
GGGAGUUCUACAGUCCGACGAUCUAUUACUAGCUAGUAUUAGGUUGAAGUUGGGGGUGGGGGCUUUCUCCGUAGGCUUGGGGAUGGUUCCCUCAAAGUGAGCCACUAUUAGAUUUGCCCAUCAGGGGAAAAGAUGGAAUUCUCGGGUGCCAA,0.388
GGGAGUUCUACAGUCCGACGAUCAUACUGAAUCCUCAAGAAGCCUUGUCAAGUUUGUAGGUAUCAUUGACGUUUUGACGAUGAGGAAAGGAGAUGCUCAGAGAGAGAGAGAUCAUGUGUUGUGAGUCAGAUCAUGGAAUUCUCGGGUGCCAA,1.33
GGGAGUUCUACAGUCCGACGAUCGGGAUUGAGUCUUGAGGAAUUCUCUCAGAUGAGAGCCAUAGGAGAUGGCCUCAUCUCCUGACUGUUUCAUGAACAACUCAUUCCUAGGUGUUAUUUGCAUGUGUGGGUUUUGGAAUUCUCGGGUGCCAA,24.5
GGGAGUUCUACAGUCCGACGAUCUGCAGACACCAAGGGGGAGCAUCCAGUCUUUAAGAGCCAAGUGGGGGCCCCUUUUCCGAAGCCACUUCCAGGCCAAGGCAGUCGCCAGGGCUUCUUGUCCCCACCUUCUGUGGAAUUCUCGGGUGCCAA,0.289
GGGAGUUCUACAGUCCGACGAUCACAUUACUCUGUGGCUGCUGGAUUCUUUUCCAGCAUGGCCUGUGGCCUGUGUGAGGCAGAACUGGGACCCUUGAUUCCCAGAUUGGGAGUCAGCCAAGGACACUGGGGCUUGGAAUUCUCGGGUGCCAA,0.226
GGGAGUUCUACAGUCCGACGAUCAACAAAAGGAAAGAAACUACCUUUUUAUAAUGCACAACUGUUGAUGGUAGGCUGUAUAGUUUUUAGUCUGUGUAGUUAAUUUAAUUUGCAGUUUGUGCGGCAGAUUGCUCUGGAAUUCUCGGGUGCCAA,0.698

# Set 4
# Target: RING finger protein unkempt homolog, zinc fingers 1-6, GST-SBP tag (UNK, Homo sapiens, UniProt Q9C0B0, residues 30-357)
# Chain of UniProt Q9C0B0 (30-357, looked up): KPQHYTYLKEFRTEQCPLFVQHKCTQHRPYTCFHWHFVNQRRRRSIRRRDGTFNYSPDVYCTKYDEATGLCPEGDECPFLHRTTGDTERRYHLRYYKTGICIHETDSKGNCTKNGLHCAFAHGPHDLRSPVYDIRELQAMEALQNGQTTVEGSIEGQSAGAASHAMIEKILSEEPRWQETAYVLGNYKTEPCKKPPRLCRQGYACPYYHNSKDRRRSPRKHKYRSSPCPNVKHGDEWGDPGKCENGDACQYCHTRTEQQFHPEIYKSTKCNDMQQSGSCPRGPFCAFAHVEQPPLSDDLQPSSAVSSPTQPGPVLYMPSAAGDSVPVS
# Method: RNA Bind-n-Seq
# Form: RNA
# Medium: in vitro
# Concentration: not given
# Notes: RNA with constant flanks, ends assumed
# Baseline: input RNA pool
# Direction: higher = stronger binding
Oligonucleotide,bound/input enrichment [ratio]
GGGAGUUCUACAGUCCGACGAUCCAACAAGCUGGCCAUGAUGAAGGUGUUCUGGAUCGUCUUGUGGACAGGAGGGAACGGCCACCCGAAGGUGGCCGAACUAAUUCCAAUAACAACAACAGCAAUCCAUGUUCAGAACAAGAUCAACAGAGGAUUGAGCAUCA,0.0842
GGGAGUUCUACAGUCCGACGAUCCCAAGAAGGGCCUCCAACAGGCAAAUUCAGGGAGAGGAUGGUUUCAGGGAAUAUCAGUUUAUCCGUGGGUCAUGAAUUAUAGACUUAACAGUAAUGGUUUGUGGUAGGAAGAUCACAACUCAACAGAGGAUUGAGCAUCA,0.457
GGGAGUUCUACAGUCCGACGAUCUAUUAUUUAUCUGUAUUUUUGGAACUAUCGGCUGGCUUGCCUGAAACUUCCAAGUAUGAAUAUCGUGCCGAAAUGGUUCACCAGUCGUGCAAUGAUCCUACAAAAAAUAUCAUUCGAGAACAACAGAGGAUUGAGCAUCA,0.192
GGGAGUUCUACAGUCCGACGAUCCACUGGAAGUGUGCUUCUAGGCAUAGUCAUUGGUUUUGCAAAAAGAGGGCUCAAAUUUAAACCGAAAUUUACAGCUAUUUGAAUGGUCAGAUAUACCAAGAAAGAAAAAUAUUUCUGUUCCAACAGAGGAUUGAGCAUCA,0.233
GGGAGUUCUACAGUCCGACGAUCUUUUUUUUAAAAUAGAAAAUAAAUCUGACAACAAAUACUUUAAAAAUUGUAAAUAGUUUUCCGUUUUACGACUUAAAGUGUUUUGAUGGGGAAAGUUGAUUGAAACUAUAACUGGUUUUACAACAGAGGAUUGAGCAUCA,1.37
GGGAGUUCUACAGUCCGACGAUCUGGGAACCGGCGAGAAUCGCCUUUCUGAAUGAAGAGCCCUCUUCACUGCCCCACCCUCACCUCCGAAUUCUCUCCUCUUUCCAAAGAAUGGCAGUUGAACCUCACUGGCCCCUCUGGGGACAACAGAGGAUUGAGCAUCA,0.227
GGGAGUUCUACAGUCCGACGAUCCUGCUUCCAAACACUGACAGGGAUCAAGUUUGUGGUCCUGGCAGACCCUAGGCAAGCUGGAACCGAUUCUCUUCUCCGAAAAAUUUAUGAAAUUUACUCAGACUUUGCCCUCAAGAAUCCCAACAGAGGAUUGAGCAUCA,0.296
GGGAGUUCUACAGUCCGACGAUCGAAGAUUUAUAUUUGCAAAGAGUAGCCGAACUGGACAAAAUUACUUCUGAAAGAGAUAAUUUCCGACAAGCAUAUGAAGAUCUUCGAAAACAAAGGCUGAAUGAAUUUAUGGCUGGUUUUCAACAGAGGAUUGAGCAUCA,0.207

# Set 5
# Target: CCND3, cyclin fold, Cln2 fusion (human)
# Method: yeast growth competition, sequencing
# Medium: yeast
# Notes: weak parent motif
# Baseline: not given
# Direction: higher = stronger binding
# Starting sequence: PPP1R3F docking peptide (human); VAPRRVLFADEAL; partner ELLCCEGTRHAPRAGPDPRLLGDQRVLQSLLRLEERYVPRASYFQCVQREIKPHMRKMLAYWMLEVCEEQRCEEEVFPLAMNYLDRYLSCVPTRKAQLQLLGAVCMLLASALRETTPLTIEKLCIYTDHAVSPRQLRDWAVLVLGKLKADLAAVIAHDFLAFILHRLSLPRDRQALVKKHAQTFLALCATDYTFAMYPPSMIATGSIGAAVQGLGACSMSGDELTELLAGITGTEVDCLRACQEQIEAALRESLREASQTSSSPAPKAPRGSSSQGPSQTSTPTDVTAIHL
Substitution,normalised enrichment score
VAPRAVAFADEAL [R5A L7A],-0.0933
VAPRRVLLADEAL [F8L],0.4
VAPRRALFADEAL [V6A],0.0185
VAPRRVAFADEAL [L7A],0.148
VAPRRVLFADEAA [L13A],0.0761
VAPRRVLFAAEAL [D10A],0.069
VAPRRVLAADEAL [F8A],0.0969
VAPRKVLLADEAL [R5K F8L],0.404

# Set 6
# Target: Histone acetyltransferase KAT6A, winged helix 1, GST fusion (KAT6A, Homo sapiens, UniProt Q92794, residues 1-85)
# Method: protein binding microarray
# Form: double-stranded DNA, one strand shown
# Medium: in vitro
# Concentration: not given
# Notes: 8-mer, flanks averaged, mean of 2 arrays, mostly near background
# Baseline: not given
# Direction: higher = stronger binding
# Construct (chain): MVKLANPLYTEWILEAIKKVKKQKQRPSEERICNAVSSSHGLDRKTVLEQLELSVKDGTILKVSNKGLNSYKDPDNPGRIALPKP
Oligonucleotide,E-score
CGTGAGAC,0.127
AAGCCGTG,0.321
CGGAACGA,-0.0298
AAATTACC,0.0455
AACTCATT,-0.159
CCGCAAAC,0.0516
AACCATGG,-0.000875
AGTATCAT,-0.0903
CTAGCACA,-0.0331
CCTGCGAG,0.0633
ACAGAGCG,0.0607
GCCCAGAA,-0.173
CTATCTTA,-0.149
ATGCAAGA,-0.217
CAACCGGA,0.0612
CTGACGAA,-0.104
GATGCGTA,0.09
AGGCTGAA,-0.214
ACCTATTA,-0.06
GCTCGACC,0.0903
CGAAAGCG,0.261
CAGTATCC,-0.0337
GTTGGTGA,-0.0235
AGCAACGA,-0.189

# A few entries again (set 1):
Substitution,relative binding score [%]
S11K,104
L91M,95.5
Q2W,87.3
D159G,91.1
T120R,28.4
E130Q,101
P36S,102
L20F,91.6
E129L,103
